{"data": "Experimental data collected from several papers", "note": "Numbered parts are unrelated; each lists some results of a single study. Changes are numbered by the printed parent chain."}
{"data": "Set 1", "target": "CCNB2, cyclin fold, Cln2 fusion (human)", "technique": "yeast growth competition, sequencing", "matrix": "yeast", "setting": "weak parent motif", "reference": "not given", "reading": "higher = stronger binding", "starting sequence": "INSM1 docking peptide (human); PKAIRKLHFEDEV; partner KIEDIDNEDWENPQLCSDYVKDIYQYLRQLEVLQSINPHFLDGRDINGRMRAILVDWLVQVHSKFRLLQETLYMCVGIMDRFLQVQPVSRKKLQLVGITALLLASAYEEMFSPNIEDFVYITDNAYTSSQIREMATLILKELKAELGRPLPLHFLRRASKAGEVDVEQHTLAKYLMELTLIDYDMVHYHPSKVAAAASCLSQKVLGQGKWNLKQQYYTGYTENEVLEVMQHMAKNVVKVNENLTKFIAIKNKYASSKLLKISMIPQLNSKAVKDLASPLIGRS"}
{"Variant": "K6F", "normalised enrichment score": 0.0524}
{"Variant": "E10N", "normalised enrichment score": 0.23}
{"Variant": "K6Q", "normalised enrichment score": 0.647}
{"Variant": "H8R", "normalised enrichment score": 0.278}
{"Variant": "A3H", "normalised enrichment score": 0.259}
{"Variant": "E12D", "normalised enrichment score": 0.266}
{"Variant": "D11N", "normalised enrichment score": 0.739}
{"Variant": "K2L", "normalised enrichment score": 0.0508}
{"data": "Set 2", "target": "ABI1, truncated, D143A, DHFR fusion (Arabidopsis thaliana)", "technique": "DHFR PCA, deep sequencing", "matrix": "yeast", "setting": "methotrexate growth selection, single substitutions", "together with": "(+)-ABA 0.11 µM", "reference": "wild-type fitted maximum", "reading": "higher = stronger binding", "starting sequence": "PYL1, truncated, DHFR fusion (Arabidopsis thaliana); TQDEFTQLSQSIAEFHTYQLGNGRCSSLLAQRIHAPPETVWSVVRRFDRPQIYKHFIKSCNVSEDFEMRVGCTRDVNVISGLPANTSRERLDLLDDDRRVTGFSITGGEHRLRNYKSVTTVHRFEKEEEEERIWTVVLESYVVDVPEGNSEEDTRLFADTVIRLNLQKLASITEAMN"}
{"Variant": "V137R", "relative binding score [%]": -2.15}
{"Variant": "L156V", "relative binding score [%]": 15.9}
{"Variant": "N114C", "relative binding score [%]": -3}
{"Variant": "R32F", "relative binding score [%]": 21.9}
{"Variant": "T6M", "relative binding score [%]": 45.1}
{"Variant": "A170Q", "relative binding score [%]": 19.9}
{"Variant": "Y141R", "relative binding score [%]": -3.05}
{"Variant": "N61D", "relative binding score [%]": 39.4}
{"data": "Other studies, line by line"}
{"Molecule": "ILNHKFCNL", "target or system": "HLA class I histocompatibility antigen, A alpha chain, allele A*80:01 (Homo sapiens, UniProt P04439)", "assay": "peptide-MHC binding", "test system": "peptide", "setting": "concentration not given", "measurement": "binding", "value": "inactive"}
{"Molecule": "UQCRQ (Homo sapiens, UniProt O14949)", "target or system": "CYC1 (Homo sapiens, UniProt P08574)", "assay": "cross-linking MS", "test system": "cells", "setting": "together with: BSPNO", "measurement": "cross-linked residues", "value": "K33 to K318"}
{"note": "For quick reference, copied from above (set 2):"}
{"Variant": "A170Q", "relative binding score [%]": 19.9}
{"Variant": "L156V", "relative binding score [%]": 15.9}
